Assay results collected from several papers.
“And” joins repeats or separate records; there may be more than shown.

Cc1ncsc1-c1ccc(C(C)NC(=O)C2CC(O)CN2C(=O)C(NC(=O)CCCCCCCCCCN2CCCC(Nc3ncc(Cl)c(Nc4ccccc4S(=O)(=O)C(C)C)n3)C2)C(C)(C)C)cc1 (centres unmarked) — result for “log2 fold change”: -3.7 (22Rv1; RNA-seq, refers to: ZNF214 mRNA; concentration not given; baseline: DMSO).
For [BH3-][P+]1(c2ccccc2)CCCCC1, “late apoptotic cells” read 5.35% (SW480; Annexin V-FITC/PI flow cytometry; IC50, 72 h).
The inhibition of Cc1cc(NC2CCN(C)CC2)ccc1-c1cc2c(N3CCC[C@H](C(=O)NCc4ccc(OC(F)(F)F)cc4)C3)ncnc2[nH]1 is reported as 74% (NCI-H2228; cell growth or viability, MTT; 0.00032 µg/mL, 72 h).
Cc1ccncc1.[Cl-].[Cl-].[Ru+2].c1cc(-c2ccc3cccnc3n2)nc(-c2ccc3cccnc3n2)c1.c1ccc2cc3nc4c5cccnc5c5ncccc5c4nc3cc2c1 gave a phototherapeutic index of 1 (SK-MEL-28; light 633 nm, oxygen 1%; baseline: dark EC50 over light EC50).
The inhibition of Cc1cc(NC2CCN(C)CC2)ccc1-c1cc2c(N3CCC[C@H](C(=O)Nc4ccc(C(F)(F)F)cc4)C3)ncnc2[nH]1 is reported as 80.3% (NCI-H2228; cell growth or viability, MTT; 1 µg/mL, 72 h).
Cc1ccc(-n2cc(CSc3nc4ccccc4n3Cc3cn(-c4ccc(C)cc4)nn3)nn2)cc1 has a viability of 6.56% (MDA-MB-231; MTT; 500 ppm).
COc1cccc(/C=N/Nc2nc(Nc3ccccc3)nc(-n3nc(C)cc3C)n2)c1O gave an Emax of 83% (LDR; silenced CMV-GFP reporter derepression, qHTS).
Under “early apoptotic cells”, COc1cc(N2CCN(C(=O)C3CCCN3)CC2)ccc1Nc1ncc(Cl)c(Nc2ccccc2P(C)(C)=O)n1 (centres unmarked) is recorded as 7.6% (Ba/F3 EML4-ALK; annexin V flow cytometry; concentration not given, 24 h).
With O=C(C[Se]C(=O)c1ccccc1Nc1cccc(C(F)(F)F)c1)Nc1cccc(C(F)(F)F)c1 the mean TGI was 3.77 µM (NCI60 renal subpanel; total growth inhibition, inhibitor; five-dose).
With [Cl-].[Cl-].[Ru+2].c1ccc(-c2ccccn2)nc1.c1ccc(-c2ccccn2)nc1.c1ccc2cc3nc4c5cccnc5c5ncccc5c4nc3cc2c1 the phototherapeutic index was 690 (SK-MEL-28; resazurin; normoxia, together with: green light 523 nm; baseline: dark EC50 over light EC50).
For COc1ccc2c(c1)c(CC(=O)[Se]CC(=O)Nc1cccc(C(F)(F)F)c1)c(C)n2C(=O)c1ccc(Cl)cc1, “mean growth percent” read -86.6% (NCI60 renal subpanel; cell growth; 10 µM, 48 h, one-dose).
CN1CCCNC(=O)c2cccc(c2)C(=O)NCCCN(C)CCCNc2cccc3c2C(=O)c2cccc(c2C3=O)NCCC1: “log2 fold change” -0.549 (SAS; RNA-Seq, refers to: SMG7 mRNA; 1 µM, 6 h; baseline: untreated cells).
The ceramide level of CCCCCCc1cccc([C@H](O)C[C@H](CO)NC(=O)CCCCCCCCCCBr)c1 is reported as 2030 pmol/sample and 1800 pmol/sample and 1600 pmol/sample (HeLa; CERT activity, HPLC-MS/MS lipidomics, refers to: ceramide 22; 1 µM, 24 h, not cell-number normalised).
For CNS(=O)(=O)Nc1nccc(Cc2c(C)c3ccc(Oc4ncccc4F)cc3oc2=O)c1F, the IC50 was 0.329 µM (RT-112; cell viability; 7 days).
N#Cc1cccc(/C=C/C(=O)c2ccc(O)cc2)c1 gave a fold change of 0.062 (U-87 MG; refers to: PPAN; concentration not given; baseline: untreated).
Cc1n[nH]c(C)c1-c1cc2c(N3CCC[C@H](C(=O)NCc4ccc(OC(F)(F)F)cc4)C3)ncnc2[nH]1 has an inhibition of 67% (NCI-H2228; cell growth or viability, MTT; 0.04 µg/mL, 72 h).
The fold change of Cn1c(=O)n(C2CCC(=O)NC2=O)c2ccc(C3CCN(CC(=O)Nc4cccc(CS(=O)(=O)N5CC[C@H](Nc6cccc(-c7sc(C(=O)O)c(OCC(=O)O)c7Cl)c6)CC5(C)C)c4)CC3)cc21 (some centres unmarked) is reported as 3.99 and 4.34 and 3.89 and 4.33 and 4.03 and 4.31 (B16-F10; HTRF, refers to: phospho-STAT1 Tyr701; 0.041 µM, together with: IFN-γ; baseline: DMSO).
CC(=O)Oc1ccccc1C(=O)[Se]CC(=O)Nc1cccc(C(F)(F)F)c1: “mean growth percent” -57.4% (NCI60 renal subpanel; cell growth; 10 µM, 48 h, one-dose).
With COc1ccc(NC(=O)CSc2nc3c(oc4ccccc43)c(=O)n2Cc2ccco2)cc1Cl the efficacy was 72% (LDR; silenced CMV-GFP reporter derepression, qHTS).
With Cn1cc(-c2cc3c(N4CCC[C@H](C(=O)NCc5ccc(OC(F)(F)F)cc5)C4)ncnc3[nH]2)cn1 the inhibition was 29.3% (NCI-H2228; cell growth or viability, MTT; 0.008 µg/mL, 72 h).
For CC(C)c1ccc(N(C)c2ccc3c(c2)OCC[C@H]3CNc2cnccc2C(=O)O)cc1, the IC50 was 0.0225 µM (786-O; cell growth, CellTiter-Glo; 7 days).
The mean TGI of O=C(C[Se]C(=O)c1ccccc1Nc1ccccc1)Nc1cccc(C(F)(F)F)c1 is reported as 3.44 µM (NCI60 renal subpanel; total growth inhibition, inhibitor; five-dose).
With COc1ccc2c(C)nc(Nc3nc(O)cc(-c4ccccc4)n3)nc2c1 the Emax was 76% (LDR; silenced CMV-GFP reporter derepression, qHTS).
Cc1cc(Cl)cc(-c2ccnc3cc(CN4C(=O)C5C(C4=O)C5(C)C)sc23)c1C[C@@H]1CNCCO1 (some centres unmarked) — result for “G1 phase cells”: 75.9% (CHP-212 resistant; PI flow cytometry; 1 µM, 24 h).
For COc1cc(OC)c(F)c(/C=C/c2cnc3ccn(S(=O)(=O)c4cn(CCF)cn4)c3n2)c1F, the inhibition was 57.2% and 59.4% (SNU-16 (FGFR2-amplified); cell proliferation; 111.1 nM).
For COc1ccccc1-c1ccncc1C(=O)Nc1nnc(OCc2ccc(Cl)cc2)s1, “γH2AX foci-positive nuclei” read 51.7% and 44% and 48.2% (DLD-1 BRCA2-knockout; immunofluorescence; 5 µM, 96 h, >5 foci per nucleus).
With COC(=O)c1cc(NC2=NC(=O)C(=Cc3ccc(C)cc3)S2)ccc1OC(C)=O the metabolite level was 0.26 fold change (MCF7; GC-MS, refers to: Myo-Inositol; 1 µM; baseline: DMSO).
Cn1ncc2cc(-c3cncc(Cl)c3N3CCC4(CCNC4=O)CC3)ccc21: “log2 fold change” -2.1 (LS174T; gene expression, microarray, refers to: MFN2 mRNA; concentration not given, 24 h; baseline: untreated cells).
Cc1cc(N2CCCCC2)ccc1-c1cc2c(N3CCC[C@H](C(=O)NCc4ccc(OC(F)(F)F)cc4)C3)ncnc2[nH]1 has an inhibition of 76.9% (NCI-H2228; cell growth or viability, MTT; 1 µg/mL, 72 h).
CCN(CC)CC(=O)Nc1cccc(-n2cc(-c3ccc4ccc(-c5cn(-c6cccc(NC(=O)CN(CC)CC)c6)nn5)cc4c3)nn2)c1 has a fold regulation of -1.79 (RCC4; PCR array, refers to: CTGF; 5 x IC50, 4 h, normoxia; baseline: untreated).
COCCCCCNc1nc(NCCCCCCN(C)C)c2cc(NC(=O)/C=C/CN(C)C)ccc2n1 gave a viability of 1.01 and 0.959 (MCF7; CellTiter-Glo; 0.09766 µM, 24 h, unit not given; baseline: DMSO-treated cells).
Cc1cc(NC2CCN(C)CC2)ccc1-c1cc2c(N3CCC[C@H](C(=O)N4CCCCC4)C3)ncnc2[nH]1 gave an inhibition of -2.51% (NCI-H2228; cell growth or viability, MTT; 0.2 µg/mL, 72 h).
The protein level of CCCCCCCCCCCCCCCC(=O)OCC(CSC[C@H](N)C(=O)N[C@@H](CO)C(=O)N[C@@H](CCCCN)C(=O)N[C@@H](CCCCN)C(=O)N[C@@H](CCCCN)C(=O)N[C@@H](CCCCN)C(=O)NCCCCCC(=O)N[C@@H](CCCCN)C(=O)N[C@@H](CC(C)C)C(=O)N[C@H](C(=O)N[C@@H](Cc1ccccc1)C(=O)N[C@@H](Cc1ccccc1)C(=O)N[C@@H](Cc1ccc2ccccc2c1)C(=O)O)C(C)C)OC(=O)CCCCCCCCCCCCCCC (some centres unmarked) is reported as 4.48 and 3.29 (BV-2; Western blot, refers to: MARCO; concentration not given, unit not given; baseline: control).
The IC50 of Cn1ncc(-c2ccc3c(=O)[nH]nc(CN)c3c2)c1-c1c(F)c(Cl)cc(OC2CC2)c1C#N is reported as 1.38 µM (SCC-9; cell viability, inhibitor, CellTiter-Glo; 120 h, baseline-subtracted).
For O=C(C[Se]C(=O)C12CC3CC(CC(C3)C1)C2)Nc1cccc(C(F)(F)F)c1, the mean TGI was 8.34 µM (NCI60 renal subpanel; total growth inhibition, inhibitor; five-dose).
CCc1nnc(NC(=O)c2cccc(C(=O)Nc3nnc(CC)s3)n2)s1 gave an Emax of 136% (LDR; silenced CMV-GFP reporter derepression, qHTS).
COc1ccc(NC(=O)C2CCCN(c3ncnc4[nH]c(-c5ccc(NC6CCN(C)CC6)cc5C)cc34)C2)cc1 (centres unmarked) has an inhibition of 62.6% (NCI-H2228; cell growth or viability, MTT; 0.008 µg/mL, 72 h).
C=CC(=O)N1[C@H](c2ccc3c(c2)OCO3)c2[nH]c3ccccc3c2C[C@H]1C(=O)N1CCOCC1: “altered sites with FOXA1 binding” over 70% (22Rv1 SF3B1 C1111S; ATAC-seq; concentration not given).
For CCN(C(=O)c1cc(F)ccc1Oc1nncnc1N1CCC2(C1)CN([C@H](CCCN(C)CCOC)C(C)C)C2)C(C)C, the GI50 was over 10 µM (WSU-NHL; cell growth or viability; 72 h).
For COC(=O)c1cc(NC2=NC(=O)C(=Cc3ccc(N(C)C)cc3)S2)ccc1OC(C)=O, the metabolite level was 0.1 fold change (MCF7; GC-MS, refers to: Phosphoric acid; 1 µM; baseline: DMSO).
The colony count of CO[C@@H]1[C@@H](OC(N)=O)[C@@H](O)[C@H](Oc2ccc3c(O)c(NC(=O)c4ccc(O)c(CC=C(C)C)c4)c(=O)oc3c2C)OC1(C)C is reported as 19.5 (HCT-116 parental; 100 µM, replicate 1).
For COCC/N=C(\S)N/N=C(\C)c1ccccc1O, the Emax was 65% (LDR; silenced CMV-GFP reporter derepression, qHTS).
With Cc1nn(C)cc1-c1cc2c(N3CCC[C@H](C(=O)NCc4ccc(OC(F)(F)F)cc4)C3)ncnc2[nH]1 the inhibition was 80.8% (NCI-H2228; cell growth or viability, MTT; 5 µg/mL, 72 h).
Cc1sc2c(c1C)C(c1ccc(Cl)cc1)=N[C@@H](CC(=O)NCC(=O)N1CCC3(CCC(C(=O)N4CCN(C(=O)c5cc(Cc6n[nH]c(=O)c7ccccc67)ccc5F)CC4)CC3)CC1)c1nnc(C)n1-2 — result for “cells in S phase”: 48% (NCI-H82; 10 nM, 24 h).

Excerpt of the above:
Cc1cc(NC2CCN(C)CC2)ccc1-c1cc2c(N3CCC[C@H](C(=O)N4CCCCC4)C3)ncnc2[nH]1 gave an inhibition of -2.51% (NCI-H2228; cell growth or viability, MTT; 0.2 µg/mL, 72 h).
Cc1n[nH]c(C)c1-c1cc2c(N3CCC[C@H](C(=O)NCc4ccc(OC(F)(F)F)cc4)C3)ncnc2[nH]1 has an inhibition of 67% (NCI-H2228; cell growth or viability, MTT; 0.04 µg/mL, 72 h).
COc1ccc(NC(=O)C2CCCN(c3ncnc4[nH]c(-c5ccc(NC6CCN(C)CC6)cc5C)cc34)C2)cc1 (centres unmarked) has an inhibition of 62.6% (NCI-H2228; cell growth or viability, MTT; 0.008 µg/mL, 72 h).
The fold change of Cn1c(=O)n(C2CCC(=O)NC2=O)c2ccc(C3CCN(CC(=O)Nc4cccc(CS(=O)(=O)N5CC[C@H](Nc6cccc(-c7sc(C(=O)O)c(OCC(=O)O)c7Cl)c6)CC5(C)C)c4)CC3)cc21 (some centres unmarked) is reported as 3.99 and 4.34 and 3.89 and 4.33 and 4.03 and 4.31 (B16-F10; HTRF, refers to: phospho-STAT1 Tyr701; 0.041 µM, together with: IFN-γ; baseline: DMSO).
COc1cccc(/C=N/Nc2nc(Nc3ccccc3)nc(-n3nc(C)cc3C)n2)c1O gave an Emax of 83% (LDR; silenced CMV-GFP reporter derepression, qHTS).
With [Cl-].[Cl-].[Ru+2].c1ccc(-c2ccccn2)nc1.c1ccc(-c2ccccn2)nc1.c1ccc2cc3nc4c5cccnc5c5ncccc5c4nc3cc2c1 the phototherapeutic index was 690 (SK-MEL-28; resazurin; normoxia, together with: green light 523 nm; baseline: dark EC50 over light EC50).
